# Assay results from different studies.
# “And” joins repeats or separate records; there may be more than shown. ± gives the spread as reported.
# Sequence of UniProt P10632 (whole entry, looked up): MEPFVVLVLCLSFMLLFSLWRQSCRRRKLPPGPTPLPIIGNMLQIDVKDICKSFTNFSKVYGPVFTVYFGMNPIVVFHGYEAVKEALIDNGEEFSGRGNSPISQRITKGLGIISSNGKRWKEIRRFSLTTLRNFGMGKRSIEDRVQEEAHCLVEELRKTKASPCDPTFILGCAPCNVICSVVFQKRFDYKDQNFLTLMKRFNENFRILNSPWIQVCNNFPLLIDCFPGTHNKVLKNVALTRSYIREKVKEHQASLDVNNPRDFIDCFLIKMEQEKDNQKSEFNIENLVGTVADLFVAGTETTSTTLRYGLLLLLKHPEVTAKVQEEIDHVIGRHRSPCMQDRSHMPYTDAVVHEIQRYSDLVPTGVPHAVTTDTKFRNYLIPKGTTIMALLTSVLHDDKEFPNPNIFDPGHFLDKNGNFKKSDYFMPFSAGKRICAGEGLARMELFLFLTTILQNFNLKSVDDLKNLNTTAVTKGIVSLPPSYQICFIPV
SMILES,target or system,test,test system,setting,how to read,endpoint,value
C=CC(=O)Nc1cc(Nc2nccc(-c3cn(C)c4ccccc34)n2)c(OCC(F)(F)F)nc1N(C)CCN(C)C,human hepatocytes lot LTG,"CYP1A2 enzyme activity, inducer",,1 µM,baseline: DMSO,fold induction,5.23
CC(C)OCCOCc1ccc(OCC(O)CN(N=O)C(C)C)cc1 (stereo not drawn),Salmonella typhimurium,Ames test,TA1537,"15.8 µg/plate, 30 % hamster S9",baseline: solvent control,revertant fold increase,0.9 fold
CC(C)Cc1ccc(C(C)C(=O)N[C@@H](CCCCNC(=O)CCOCCOCCOCCOCCOCCOCCNC(=O)CN2CCN(CC(=O)[O-])CCN(CC(=O)[O-])CCN(CC(=O)[O-])CC2)C(=O)Nc2cccc3c(C(=O)NCC(=O)N4CC(F)(F)C[C@H]4C#N)ccnc23)cc1.[177Lu+3] (stereo partly drawn),U-87 MG tumour model,,"host not given, pancreas","1 h, tumour-bearing",,tracer uptake,7.45 %ID/g
O=C(O)CCCOc1ccc(O)cc1-c1cc(-c2ccccc2C(F)(F)F)n(-c2ccccc2)n1,human iPSC-derived cardiomyocytes,,,0.2 µM,,beat rate,45.3 ± 2.6 min⁻¹
C=C(NC(=O)c1csc(-c2nc3c(cc2O)-c2nc(cs2)C(=O)NC(C(C)O)C(=O)NC(=C(C)OC)c2nc(cs2)C(=O)NC2c4nc(cs4)C(=O)NC(COC(=O)c4c5c6c(cccc6n4O)COC(=O)C(OC4CC(C)(O)C(N(C)C)C(C)O4)C2OC5)c2nc-3cs2)n1)C(N)=O (stereo not drawn),,,"ICR mice, Streptococcus pneumoniae ATCC 49169 infected, immunocompromised, blood","intravenous, 4 mg/kg/day three times daily",,half-life,6.31 h
CN1CCCNC(=O)c2cccc(c2)C(=O)NCCCN(C)CCCNc2cccc3c2C(=O)c2cccc(c2C3=O)NCCC1,HSC-2,"cell growth or viability, CCK-8",,"1.5 µM, 48 h",,viability,35.5%
O=C1NC2(CC2)COc2ncc(F)cc2[C@H]2COCCN2c2ccn3ncc1c3n2,Salmonella typhimurium,Ames test,TA100,"5000 µg/plate, 48 h, added: rat liver S9",,revertant colonies,62 ± 7 revertants/plate
N#C[C@@H]1CCCN1C(=O)CNC(=O)c1ccnc2ccc(OCCCN3CCN(C(=O)CCc4ccc(O)c(CN5CCN6CC(=O)[O][Al-]([18F])([O]C(=O)C5)[O]c5ccc(CCC(=O)N7CCN(CCCOc8ccc9nccc(C(=O)NCC(=O)N%10CCC[C@H]%10C#N)c9c8)CC7)cc5C6)c4)CC3)cc12 (stereo partly drawn),U-87 MG tumour model,,"host not given, intestine","1 h, tumour-bearing",,tracer uptake,10.8 %ID/g
Cc1nc2cccc(OCC(C)(C)C(=O)NC(C)C)c2c(N)c1C(=O)[O-].[Na+],human peripheral blood lymphocytes,,,"500 g/mL, 3 h, without S9",,relative mitotic index,78%
N#C[C@@H]1CC(F)(F)CN1C(=O)CNC(=O)c1ccnc2c(NC(=O)[C@H](CCCCNC(=O)CCOCCOCCOCCOCCOCCOCCNC(=O)CN3CCN(CC(=O)[O-])CCN(CC(=O)[O-])CCN(CC(=O)[O-])CC3)NC(=O)CCCc3ccc(I)cc3)cccc12.[177Lu+3],U-87 MG tumour model,,"host not given, stomach","48 h, tumour-bearing",,tracer uptake,0.25 %ID/g
O=C1C2CC3CC1CC(C(=O)N1CCN(c4ccc([N+](=O)[O-])c5ncccc45)CC1)(C3)C2,Salmonella typhimurium,Ames test,TA1535,"0.78 µg/well, with S9",,mean revertant colonies,3 colonies/well
Nc1nc2cc(C(=O)c3ccc(F)cc3)ccc2[nH]1,Salmonella typhimurium,Ames preincubation test,TA98,"39.0 µg/plate, without S9",,revertants,25.7 revertants/plate
COc1cccc(OC)c1-c1cc(C(=O)NC2(C(=O)O)C3CC4CC(C3)CC2C4)nn1-c1ccc(C(=O)N(C)CCCN(C)C(=O)[C@H](CCCCNC(=O)[C@H](CC(C)C)NC(=O)C2OC2C(=O)O)NC(=O)CN2CCN(CC(=O)[O-])CCN(CC(=O)[O-])CCN(CC(=O)[O-])CC2)cc1C(C)C.[177Lu+3] (mixture of isomers),HT-29 tumour model,,"host not given, bone","7 days, tumour-bearing",,tracer uptake,0.03 %ID/g
CNC(=O)C1CCCN(C(=O)C2CC3CCC2N3C(=O)[C@@H]2C[C@@H](O)CN2C(=O)NCc2cccc(Cl)c2F)C1 (mixture of isomers),"Cytochrome P450 2C8 (CYP2C8, Homo sapiens, UniProt P10632)",preincubation with NADPH,human,16.7 µM,baseline: negative control,remaining activity,67.4% and 80.6% and 82.9%
COC(=O)Nc1nc2cc(C(O)c3ccc(F)cc3)ccc2[nH]1 (stereo not drawn),Salmonella typhimurium,Ames preincubation test,TA100,"437.5 µg/plate, without S9",,revertants,157 revertants/plate
N#C[C@@H]1CCCN1C(=O)CNC(=O)c1ccnc2ccc(OCCCN3CCN(C(=O)CCc4ccc5c(c4)CN4CCN6CC(=O)[O][68Ga-]([O]C(=O)C4)([O]5)[O]c4ccc(CCC(=O)N5CCN(CCCOc7ccc8nccc(C(=O)NCC(=O)N9CCC[C@H]9C#N)c8c7)CC5)cc4C6)CC3)cc12,U-87 MG tumour model,,"host not given, muscle","2 h, tumour-bearing",,tracer uptake,2.14 %ID/g
COc1cccc(OC)c1-c1cc(C(=O)NC2(C(=O)O)C3CC4CC(C3)CC2C4)nn1-c1ccc(C(=O)N(C)CCCN(C)CCCN(C)C(=O)[C@H](CCCCNC(=O)[C@H](CC(C)C)NC(=O)C2OC2C(=O)O)NC(=O)CN2CCN(CC(=O)[O-])CCN(CC(=O)[O-])CCN(CC(=O)[O-])CC2)cc1C(C)C.[177Lu+3] (mixture of isomers),HT-29 tumour model,,"host not given, blood","4 h, tumour-bearing",,tracer uptake,2.1 %ID/g
CCN(CC)CC#CCNc1ccnc2cc(Cl)ccc12,Salmonella typhimurium,mini-Ames test,TA100,"1000.0 µg/well, without S9",,revertants per well,13
O=C(Nc1cnccc1-c1ccc([18F])nc1)c1ccnc(NC(=O)C2CC2)c1,,,"FVB/NJ mice (both sexes), muscle","intravenous, dose not given, 120 min",,SUV,0.122
Cc1ccccc1-c1cc(CN2c3ccccc3C=Cc3ccccc32)on1,BJ,cytotoxicity,,,,IC50,> 30 µM
N#C[C@@H]1CC(F)(F)CN1C(=O)CNC(=O)c1ccnc2c(NC(=O)[C@@H](N)CCCCNC(=O)CCOCCOCCOCCOCCOCCOCCNC(=O)CN3CCN(CC(=O)[O-])CCN(CC(=O)[O-])CCN(CC(=O)[O-])CC3)cccc12.[177Lu+3],U-87 MG tumour model,,"host not given, pancreas","24 h, tumour-bearing",,tracer uptake,0.04 %ID/g

# Excerpt of the above:
SMILES,target or system,test,test system,setting,how to read,endpoint,value
Cc1ccccc1-c1cc(CN2c3ccccc3C=Cc3ccccc32)on1,BJ,cytotoxicity,,,,IC50,> 30 µM
N#C[C@@H]1CC(F)(F)CN1C(=O)CNC(=O)c1ccnc2c(NC(=O)[C@H](CCCCNC(=O)CCOCCOCCOCCOCCOCCOCCNC(=O)CN3CCN(CC(=O)[O-])CCN(CC(=O)[O-])CCN(CC(=O)[O-])CC3)NC(=O)CCCc3ccc(I)cc3)cccc12.[177Lu+3],U-87 MG tumour model,,"host not given, stomach","48 h, tumour-bearing",,tracer uptake,0.25 %ID/g
CN1CCCNC(=O)c2cccc(c2)C(=O)NCCCN(C)CCCNc2cccc3c2C(=O)c2cccc(c2C3=O)NCCC1,HSC-2,"cell growth or viability, CCK-8",,"1.5 µM, 48 h",,viability,35.5%
